Experimental data of several laboratories.
Parts stem from different laboratories: compare values within a part only.
Chain of UniProt P11388 (whole entry, looked up): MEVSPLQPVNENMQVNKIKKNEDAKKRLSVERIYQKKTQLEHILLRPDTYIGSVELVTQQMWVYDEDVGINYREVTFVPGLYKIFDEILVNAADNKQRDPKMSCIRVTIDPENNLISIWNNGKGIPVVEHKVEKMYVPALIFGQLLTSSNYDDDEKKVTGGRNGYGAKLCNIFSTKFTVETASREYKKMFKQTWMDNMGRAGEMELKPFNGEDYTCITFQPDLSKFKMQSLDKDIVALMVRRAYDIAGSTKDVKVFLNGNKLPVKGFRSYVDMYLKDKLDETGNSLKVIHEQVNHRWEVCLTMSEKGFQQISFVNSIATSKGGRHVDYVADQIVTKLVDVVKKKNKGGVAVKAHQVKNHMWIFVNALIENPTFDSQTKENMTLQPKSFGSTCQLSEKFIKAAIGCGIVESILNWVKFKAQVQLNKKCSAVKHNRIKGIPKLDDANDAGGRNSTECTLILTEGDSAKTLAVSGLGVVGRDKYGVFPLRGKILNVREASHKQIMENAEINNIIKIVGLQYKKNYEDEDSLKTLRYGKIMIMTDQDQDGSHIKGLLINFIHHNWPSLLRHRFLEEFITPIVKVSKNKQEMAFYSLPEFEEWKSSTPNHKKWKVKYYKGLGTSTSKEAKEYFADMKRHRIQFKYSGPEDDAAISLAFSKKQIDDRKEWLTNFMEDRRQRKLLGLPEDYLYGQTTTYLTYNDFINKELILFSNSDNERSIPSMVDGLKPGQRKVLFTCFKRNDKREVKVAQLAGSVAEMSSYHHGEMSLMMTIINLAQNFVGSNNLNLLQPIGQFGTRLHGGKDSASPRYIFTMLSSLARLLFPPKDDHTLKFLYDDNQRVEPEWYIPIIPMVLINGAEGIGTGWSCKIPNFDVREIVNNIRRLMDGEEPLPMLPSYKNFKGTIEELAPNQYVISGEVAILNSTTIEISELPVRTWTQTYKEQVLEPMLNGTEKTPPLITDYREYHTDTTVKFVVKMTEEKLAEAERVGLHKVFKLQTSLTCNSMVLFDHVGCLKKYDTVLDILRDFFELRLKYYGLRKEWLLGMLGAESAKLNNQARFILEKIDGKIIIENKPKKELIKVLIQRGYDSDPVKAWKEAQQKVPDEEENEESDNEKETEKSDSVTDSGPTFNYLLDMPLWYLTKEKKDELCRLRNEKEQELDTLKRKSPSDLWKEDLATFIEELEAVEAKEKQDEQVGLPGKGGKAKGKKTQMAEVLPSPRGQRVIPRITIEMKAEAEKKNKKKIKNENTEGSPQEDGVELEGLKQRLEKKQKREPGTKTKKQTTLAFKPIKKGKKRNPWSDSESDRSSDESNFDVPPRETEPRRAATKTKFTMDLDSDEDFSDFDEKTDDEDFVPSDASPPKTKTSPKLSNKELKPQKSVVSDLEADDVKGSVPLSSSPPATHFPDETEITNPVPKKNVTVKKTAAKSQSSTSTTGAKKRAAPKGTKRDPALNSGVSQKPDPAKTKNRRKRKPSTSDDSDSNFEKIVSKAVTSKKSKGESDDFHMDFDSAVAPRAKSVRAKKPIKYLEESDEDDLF

Series 1
Compound: Fc1ccccc1Cc1nc(-c2nc(C(F)(F)F)n[nH]2)cn2ccnc12
Host: healthy volunteers
Setting: single ascending dose
Reference: placebo
Measurement: smooth pursuit eye movements
50 mg: -1.25%
20 mg: -0.64%
3 mg: -2.76%
30 mg: -0.33%

Series 2
Target: Replicase polyprotein 1ab, nsp14 (rep, Severe acute respiratory syndrome coronavirus 2, UniProt P0DTD1)
Action: inhibitor
Measurement: IC50
COc1ccccc1CNC(=O)c1cc(S(=O)(=O)N2CCC3(CC2)CC3)c(C)n1C: > 6.25 µM
Cn1nc(S(=O)(=O)N2CCn3nccc3C2)cc1C(=O)NCc1cccnc1N1CCCC1: > 6.25 µM
COc1ccccc1CNC(=O)c1cc(C(=O)N2CCC(C)CC2)c(C)n1C: > 6.25 µM

Further values, each from its own experiment
COC(=O)Nc1c(N)nc(-c2nn(Cc3ccccc3F)c3ncc(F)cc23)nc1N — AUC(0-tau) at steady state (humans, plasma; 10 mg once daily, 0 to 24 h, phase I DDI study, without warfarin): 5180 ng·h/mL
COc1cc([C@@H]2c3cc4c(cc3[C@@H](O[C@@H]3O[C@@H]5CO[C@@H](C)O[C@H]5[C@H](O)[C@H]3O)[C@H]3COC(=O)[C@H]23)OCO4)cc(OC)c1O — linear DNA (TOP2A (Homo sapiens, UniProt P11388); DNA cleavage; 125 µM, replicate 1): 25.3%
